# Experimental data pooled from the literature.
# Protocols differ between the studies behind these lines. Several values in a cell are separate wells, animals, samples, runs or records. ± marks the error that the study gave.
Compound,test,system,setting,how to read,measurement,result
NC1(C(=O)N[C@@H](CCO)c2ccc(Cl)cc2)CCN(c2nc[nH]c3nccc2-3)CC1,,metastatic CRPC patients,"400 mg b.i.d., grade 3 to 4, treatment-related, together with: enzalutamide 160 mg daily",,incidence of Neutropenia,0%
O=C(N[C@H](CO)[C@H](O)c1ccc([N+](=O)[O-])cc1)C(Cl)Cl,starch gel membrane permeability,Gram-negative envelope surrogate,"200 µM, 60 min, pH 7.4",,amount permeated,4.28 nmol
C[C@H]1CN(C(=O)CC#N)[C@]12CCN(c1ncnc3[nH]ccc13)C2,,healthy human,"oral, 3 mg single",,subjects with serious TEAEs,0%
O=C(O)CCCOc1ccc([18F])cc1-c1cc(-c2ccccc2C(F)(F)F)n(-c2ccccc2)n1,gamma counting,"male ddY mice, bone","intravenous, 2.1 MBq, 5 min",,radioactivity uptake,1.02 ± 0.19 SUV
O=C(COc1ccc(Cl)cc1)NC12CC(c3nnc([C@H]4C[C@@H](OC(F)(F)F)C4)o3)(C1)C2,,human both sexes,"oral, 200 mg once daily, 14 days",,postural dizziness participants,14.3%
CNC(=O)c1cccc(-c2ccc(O[C@H]3O[C@H](CO)[C@@H](O)[C@H](O)[C@@H]3O)c(C)c2)c1,,"male Sprague-Dawley rat, plasma","intravenous, 3 mg/kg, group mean",,AUC(0-all),521 ng·h/mL
CC(=O)O[C@@]12CO[C@@H]1C[C@H](O)[C@@]1(C)C(=O)[C@H](O)C3=C(C)[C@@H](OC(=O)[C@H](O)[C@@H](NC(=O)OC(C)(C)C)c4ccccc4)C[C@@](O)([C@@H](OC(=O)c4ccccc4)[C@H]21)C3(C)C,,healthy BALB/c mouse,"intravenous, 10 mg/kg every 3 days",baseline: saline,serum ALT and AST,increased
Cc1nc(-c2ccc(OCC(C)C)c(C#N)c2)sc1C(=O)O,,"KM mouse, chronic hyperuricaemia model","dose not given, day 4",,body weight,26.5 g and 29.4 g and 29.7 g and 27.1 g and 30.4 g and 28.7 g
CCc1cc(C(=O)NC)c2nccc(N3CCc4c(cc(Cn5ccnc5)cc4-c4cn(C)nc4C(F)(F)F)C3=O)c2c1,,"Sprague Dawley rat, male, plasma","oral, 100 mg/kg once daily, 7 days, toxicokinetic satellite group",,AUC(0-last),53300 ng·h/mL
O=C(O)/C=C/c1ccc(OS(=O)(=O)O)cc1,,human plasma,median,,plasma concentration,77.1 nM
Cc1c2oc3c(C)ccc(C(=O)N[C@@H]4C(=O)N[C@H](C(C)C)C(=O)N5CCC[C@H]5C(=O)N(C)CC(=O)N(C)[C@@H](C(C)C)C(=O)O[C@@H]4C)c3nc-2c(C(=O)N[C@@H]2C(=O)N[C@H](C(C)C)C(=O)N3CCC[C@H]3C(=O)N(C)CC(=O)N(C)[C@@H](C(C)C)C(=O)O[C@@H]2C)c(N)c1=O,LC-MS,"children with cancer, plasma","dose not given, 1 h",,median plasma concentration,6.3 µg/L
CC(=O)N(C)[C@H]1CCN(C(=O)c2cnc3c(c2)C[C@](C)(c2ccc(F)cc2)N3)C1,measured: liver function test increased,human,"oral, 30 mg once daily",,adverse event duration,22 days
Cc1c(C(=O)O)ccc2c3n(nc12)[C@@H]1[C@H](C3)N(CC2CC2)[C@@]2(C(=O)Nc3cc(Cl)ccc32)[C@H]1c1cccc(Cl)c1F,,human patients phase Ia,"oral, dose not given, all grades, all patients",,back pain incidence,16.7%
O=C([O-])CN(CCN(CC(=O)[O-])Cc1cc(CCC(=O)NCCCCCC(=O)NCCCC[C@H](NC(=O)N[C@@H](CCC(=O)O)C(=O)O)C(=O)O)ccc1[O-])Cc1cc(CCC(=O)O)ccc1[O-].[68Ga+3].[OH3+],PET/CT,"human, prostatic lesion",,,SUVmax,20.8
[18F]c1ccc(-c2ccc3c(c2)[nH]c2ccncc23)cn1,ex vivo biodistribution,"B6SJL mouse, normal, bladder","intravenous, 30 min",,SUV,2.53 ± 2.64
O=C(Nc1nc2cccc(-c3ccc(CN4CCS(=O)(=O)CC4)cc3)n2n1)C1CC1,measured: diarrhoea,human rheumatoid arthritis patients,"oral, 300 mg once daily, 4 weeks, regardless of relatedness",,treatment-emergent adverse events,0%
O=S(=O)(O)Oc1cc(O)cc(/C=C/c2ccc(O)cc2)c1,,"human, plasma",,,samples above LOQ,100%
C[C@@H]1CCO[C@H]2Cn3cc(C(=O)NCc4ccc(F)cc4F)c(=O)c(O)c3C(=O)N12,,"human paediatric patients, weight sample B to under sample C kg, plasma","oral, 30 mg dispersible tablet, steady state, geometric mean, population PK post-hoc, N 5",,AUC(0-24),78300 ng·h/mL
CC(C)NCCCC[C@@H]1NC(=O)[C@H](Cc2ccc(O)cc2)NC(=O)[C@H](Cc2ccccc2)NC(=O)CC[C@H](C(=O)N[C@@H](CCCCNC(C)C)C(=O)N[C@@H](CCCCNC(=O)[C@H](CCC(=O)O)NC(=O)[C@H](CCC(=O)O)NC(=O)[C@H](CCC(=O)O)NC(=O)CN2CCN(CC(=O)O)CCN(CC(=O)O)CCN(CC(=O)O)CC2)C(N)=O)NC(=O)CNC(=O)[C@H](Cc2ccc3ccccc3c2)NC(=O)[C@@H](CCCNC(=N)N)NC1=O [gallium-68 labelled],,"mouse with Daudi xenograft, muscle","intravenous, 1 h",,tissue uptake,0.12 %ID/g
COc1cc(/C=C/C(=O)OC2CC(O)(C(=O)O)CC(O)C2O)ccc1O (stereo not shown),,human plasma,mean,,plasma concentration,59 nM
COc1cc([C@@H]2Oc3cc([C@H]4Oc5cc(O)cc(O)c5C(=O)[C@@H]4O)ccc3O[C@H]2CO)ccc1O,,"OATP1B1/1B3 humanized mice, plasma","oral gavage, 500 mg/kg silymarin, geometric mean",,AUC(0-4h),1.15 µM·h
Cc1nc(-c2cnc(NC(C)C)n(C)c2=O)ccc1Oc1ccnc(-c2cnn(C)c2)c1,,"Beagle dog, male, plasma","oral, 30 mg/kg, crossover study, mean",,oral bioavailability,24.1%
CC(C)(C(=O)N1CCOc2c(C#N)cncc2C1)C(F)F,measured: Psychiatric disorders,human,"oral, 20 mg twice daily, 14 days, multiple ascending dose",,subjects with adverse event,12.5%
CO[C@H]1C[C@@H]2CC[C@@H](C)[C@@](O)(O2)C(=O)C(=O)N2CCCC[C@H]2C(=O)O[C@H]([C@H](C)C[C@@H]2CC[C@@H](O)[C@H](OC)C2)CC(=O)[C@H](C)/C=C(\C)[C@@H](O)[C@@H](OC)C(=O)[C@H](C)C[C@H](C)/C=C/C=C/C=C/1C,,healthy adult horses,"oral, 0.06 mg/kg, 0 h",,heart rate,31.5 ± 4.6 beats/min
C[C@H](NC(=O)/C(C#N)=C/c1cccc(Br)n1)c1ccccc1,LC-MS/MS,"patients, plasma","oral, 2 mg/kg, cycle 1 day 8",,AUC(all),64 ng·h/mL
Cc1ccc([C@@H]2O[C@H](CO)[C@@H](O)[C@H](O)[C@H]2O)cc1Cc1ccc(-c2ccc(F)cc2)s1,,Japanese type 2 diabetes patients,"25 mg, day 1, 24 h urine collection",baseline: baseline,urinary calcium excretion change,-19.9 mg
N#Cc1ccc2c(c1)[C@H]1CCCN(C(=O)c3ccc4[nH]cnc4c3)[C@H]1C2,,human,"10 mg, day 7",,median ACTH level,5.1 pmol/L
CCCCC1=NC2(CCCC2)C(=O)N1Cc1ccc(-c2ccccc2S(=O)(=O)Nc2noc(C)c2C)c(COCC)c1,,"healthy adult volunteers, plasma","oral, 400 mg, single dose, fed, crushed tablet",,Tmax,5.61 h
O=C(O)[C@H]1O[C@@H](Oc2cc(-c3oc4cc(O)cc(O)c4c(=O)c3O)ccc2O)[C@H](O)[C@@H](O)[C@@H]1O,,human plasma,median,,plasma concentration,17.3 nM
C=CC[C@@H]1/C=C(\C)C[C@H](C)C[C@H](OC)[C@H]2O[C@@](O)(C(=O)C(=O)N3CCCC[C@H]3C(=O)O[C@H](/C(C)=C/[C@@H]3CC[C@@H](O)[C@H](OC)C3)[C@H](C)[C@@H](O)CC1=O)[C@H](C)C[C@@H]2OC,,"Wistar Kyoto rat, male, plasma","ip, 0.5 mg/kg/day, day 28, at sacrifice",,plasma Cl- level,99 ± 2 mmol/L
COc1ccc2c(c1)CN(C(=O)CCN1CCC(Cc3ccccc3)CC1)CC[S@@+]2[O-],telemetry,conscious male beagle dogs,"intravenous, 4 mg/kg, 2 h",,PQ interval,92 ± 6 ms
CN[C@H](CC(C)C)C(=O)N[C@H]1C(=O)N[C@@H](CC(N)=O)C(=O)N[C@H]2C(=O)N[C@H]3C(=O)N[C@H](C(=O)N[C@H](C(=O)O)c4cc(O)cc(O)c4-c4cc3ccc4O)[C@H](O)c3ccc(c(Cl)c3)Oc3cc2cc(c3O[C@@H]2O[C@H](CO)[C@@H](O)[C@H](O)[C@H]2O[C@H]2C[C@](C)(N)[C@H](O)[C@H](C)O2)Oc2ccc(cc2Cl)[C@H]1O,,"C57BL/6N mouse H2, faeces","po, 0.5 mL, 20 mg/mL solution",,elimination rate constant,0.12 h⁻¹
O=c1oc2cc(O)ccc2c2ccc(O)cc12,,human plasma,median,,plasma concentration,57.7 nM
CO[C@@H]1[C@H](O)[C@@H](CO)O[C@H]1n1c([N+](=O)[O-])nc2c(=O)[nH]c(N)nc21,"depurination, RP-HPLC",citrate-phosphate buffer 0.5 mM,"2820 min, pH 2, 37 °C",,nucleoside remaining fraction,0.115
Cc1cccc(CNC(=O)c2cn(CCNC(=O)c3ccccc3Sc3c([N+](=O)[O-])ncn3C)c3cc4c(cc3c2=O)OC(F)(F)O4)n1,,"Sprague-Dawley rat, male, plasma","intramuscular, 3 mg/kg of parent drug",,Tmax,0.083 h
CCc1nc(C(N)=O)c(Nc2ccc(N3CCC(N4CCN(C)CC4)CC3)c(OC)c2)nc1NC1CCOCC1,,"Japanese patients, plasma","oral, 120 mg, cycle 1 day 28, multiple doses, mean",baseline: single dose,accumulation ratio (AUC),7.97
O=C(O)CCC(=O)O.[2H]C([2H])([2H])Oc1cc(C)c2[nH]ccc2c1CN1CC[C@@H](C2CC2)C[C@H]1c1ccc(C(=O)O)cc1,,healthy Chinese subjects,"oral, 400 mg, single ascending dose",,subjects with elevated uric acid,0%
Cn1cc(Nc2nc(N)nc(-c3cccc(-n4ccc5cc(C6CC6)cc(F)c5c4=O)c3CO)n2)cn1,,"healthy humans, fed","oral tablet, 150 mg twice daily (multiple dose), 14 (unit not given)",baseline: subjects,drug-related vomiting incidence,0%
Cc1cc(-c2nnc(N)nc2-c2ccc(F)cc2)cc(Cl)n1,measured: Nausea,"human phase Ia/Ib colorectal cancer, immunotherapy-naive","oral, dose not given",,patients with treatment-related adverse events,48%
C=CC(=O)NC1CCN(c2ncc3ncnc(Nc4ccc(Oc5ccc6c(c5)ncn6C)c(C)c4)c3n2)CC1,,healthy humans,,,tolerability,not toxic
N#Cc1ccc2c(c1)[C@H]1CCCN(C(=O)c3ccc4[nH]cnc4c3)[C@H]1C2,,"human, plasma","20 mg once daily, day 21",,pre-dose plasma concentration,513 nmol/L
CC(C)n1c(Nc2cccnc2)nc2cnc(Nc3ccc(N4CCN(C)CC4)cc3)nc21,measured: antithrombin III antibodies elevated,healthy male subjects,"oral, 100 mg, study, together with: gemfibrozil",,subjects with adverse event,50%
CN(C)CCCNC(=O)/C(=C/CCCCC(=O)NO)COc1cccc2ccccc12,,human,"iv, 312.5 mg/m2, day 1, single dose, mean",,MRT(0-inf),7.51 h
Cc1c(Cl)c(C)[n+]([O-])c(Cl)c1-c1noc(-c2cc(O)c(O)c([N+](=O)[O-])c2)n1,,healthy Chinese subjects,"oral, 50 mg, 20 days",,TEAE incidence,13.3%
O=C(O)CNC(=O)c1cccc(O)c1,,human plasma,median,,plasma concentration,6490 nM
CC(C)c1nc(N(C)S(C)(=O)=O)nc(-c2ccc(F)cc2)c1/C=C/[C@@H](O)C[C@@H](O)CC(=O)O,measured: vascular disorders,healthy men,"oral, dose not given, 8 days, treatment-emergent, crossover trial",,subjects with adverse event,0%

# Some of these lines once more:
Compound,test,system,setting,how to read,measurement,result
Cc1c2oc3c(C)ccc(C(=O)N[C@@H]4C(=O)N[C@H](C(C)C)C(=O)N5CCC[C@H]5C(=O)N(C)CC(=O)N(C)[C@@H](C(C)C)C(=O)O[C@@H]4C)c3nc-2c(C(=O)N[C@@H]2C(=O)N[C@H](C(C)C)C(=O)N3CCC[C@H]3C(=O)N(C)CC(=O)N(C)[C@@H](C(C)C)C(=O)O[C@@H]2C)c(N)c1=O,LC-MS,"children with cancer, plasma","dose not given, 1 h",,median plasma concentration,6.3 µg/L
Cc1ccc([C@@H]2O[C@H](CO)[C@@H](O)[C@H](O)[C@H]2O)cc1Cc1ccc(-c2ccc(F)cc2)s1,,Japanese type 2 diabetes patients,"25 mg, day 1, 24 h urine collection",baseline: baseline,urinary calcium excretion change,-19.9 mg
O=C([O-])CN(CCN(CC(=O)[O-])Cc1cc(CCC(=O)NCCCCCC(=O)NCCCC[C@H](NC(=O)N[C@@H](CCC(=O)O)C(=O)O)C(=O)O)ccc1[O-])Cc1cc(CCC(=O)O)ccc1[O-].[68Ga+3].[OH3+],PET/CT,"human, prostatic lesion",,,SUVmax,20.8
COc1cc([C@@H]2Oc3cc([C@H]4Oc5cc(O)cc(O)c5C(=O)[C@@H]4O)ccc3O[C@H]2CO)ccc1O,,"OATP1B1/1B3 humanized mice, plasma","oral gavage, 500 mg/kg silymarin, geometric mean",,AUC(0-4h),1.15 µM·h
